Measurements collected from several papers.
Parts stem from different laboratories: compare values within a part only. Substitutions count along the parent as printed.

Block 1 — method: RNA Bind-n-Seq; form: RNA; sample: in vitro; tested at: 365 nM; baseline: no-protein control; reading: higher = stronger binding; endpoint: RBNS enrichment (R)
Target: RNA binding protein fox-1 homolog 2, RRM domain, GST-SBP tag (RBFOX2, Homo sapiens, UniProt O43251-10, residues 100-194)
Notes: natural RNA segment, single round, ends assumed
All sequences stand within: GGGAGUUCUACAGUCCGACGAUC … UGGAAUUCUCGGGUGCCAA
Construct (chain): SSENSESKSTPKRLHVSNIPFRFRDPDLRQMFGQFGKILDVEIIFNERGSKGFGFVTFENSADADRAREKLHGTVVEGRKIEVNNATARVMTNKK
AGGUGACUGCCAAAUAAUAUUUGAAGUCAUCUGUCUCUUUGUAAAUUAUUUUAUAUGACCUAUAAAUUUAAAAAUGUUUUUCAGUGAGUGCUUUUAACAAACUUAAGCUU: 1.02
AGACCCAAGCCAAAUAUGGAUUCUAGGCUCUGGAACUGAUUGCUCCCAGGAUCUCCUGCCAGCCCAGCUGGCCUGGCCCCCAGCUUCACCUCUGGGACCCCAGCUGCUCU: 0.231
UUAGGAUAAUGGUGGACAUUUCAGUGCAUGUUUAGCUAAUGAACUUAGUUUUCUUUGCCCUUUCCAUGUUGUAGGCUACAUACAUCUCCAUGUUCAUUCUCAUGUUUUUU: 1.14
AGCAGCGCGUUCUGCGGGGCCCACUGAAGCAGAAGGCUUUUCCCUGGGGAACAGCUCUCGGUGUUGACUGCAUUGUUGCAGUCUCCCAAGUCUGCCCUGUUUUUUUAAUU: 0.331
UCCAUCGCAAUGACCUGUAUUAAACACAAGCCCCCCAAGCAAAAGAAGAGGUUGAGUUUGCUGCCAGGAUUCAGAUCAGCCCUUCCCAGGGUCUGCAGGUGUCACAUGAU: 0.495
UUAUGUAAAAUGCUCAAUUAUAUAUUUUUGUUGAGUUUUUUAAUUAAAGACUUGUAAAAAAAAAAAACAGUAUAUUGCAAAUGUUUCUUAAAUAGGUUAGGUGGAGUACU: 0.854
AGAAAGUCUCUUGACUUAAGUUCUGAGACUCCAAAGACUGCACAUAAGUUUUAGACAUACAAGUGUCUAUCUCAAAGCAGAAGCAGAGAAAACAGAAAGAAGCUACAACA: 0.275
UCCCACCCCCUCCCCCUGGGGGCAAAUCAGGACACAACAGAGGGCAGAGGCCCCAUUAGCUUUAAAAUGUAGCCCCAGGUUGGAGCUGGGAACACUGUACUGGCCACUUA: 0.618
CAAAUUGGUAUUUUUAAAGAUGUAACAUACUUUUUUUUUUAGGUCUCUAGCUACCCACAAGGGAAGUGUAUAGCAUAAAAAGUCUAAGUAGCAUAUCCUGUCCUGAAAGU: 0.308
AAUUAUUUUCUAAUCCCUUUCUGAGUACUCUGGGGCCCUGCAUUUAUGAGGCACCUACCUUCAUUUUGCUAACGCUUAUUCUGAAUAAAAGUUUUUGAUUCCUUAAAGAC: 0.344
GUUAAAGGGACGAGUCUGCCUUCCUGGCUGUGACACGGGACCCCUUUUCUACAGACCUCAUCACUGGAUUUGCCAACUAGAAUUCGAUUUCCUGUCAUAGGAAGCUCCUU: 0.397
UUUUAUGAAUAUGGUGAUGAGUUAGUAAAAGUGGCCAUUAUUGGGCUUAUUCUCUGCUCUAUAGUUGUGAAAUGAAGAGUAAAAACAAAUUUGUUUGACUAUUUUAAAAU: 0.627

Block 2 — method: protein binding microarray; form: double-stranded DNA, one strand shown; sample: in vitro; tested at: not given; baseline: not given; reading: higher = stronger binding; endpoint: E-score
Target: Histone acetyltransferase KAT6A, both winged helices, GST fusion (KAT6A, Homo sapiens, UniProt Q92794, residues 1-181)
Notes: 8-mer, flanks averaged, mean of 2 arrays, mostly near background
Target sequence (chain): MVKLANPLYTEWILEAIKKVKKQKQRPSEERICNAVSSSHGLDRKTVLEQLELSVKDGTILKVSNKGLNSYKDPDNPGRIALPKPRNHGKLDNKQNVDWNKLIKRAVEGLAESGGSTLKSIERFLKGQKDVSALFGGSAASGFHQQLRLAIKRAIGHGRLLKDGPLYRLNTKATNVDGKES
GTAACTTA: -0.0913
ATCTGTTC: -0.125
CCGCGTAG: 0.195
AATAGGGA: -0.183
GATTACGA: -0.0925
AATATTAC: 0.00568
CCGAAAAC: 0.139
CTTACATC: -0.125
GACAGCCC: 0.0257
ATGGTGAA: -0.0963
AGTGATCA: -0.07
AATAGACT: -0.263
CAGTAGAC: -0.0515
CTTGCTGA: -0.188
CATAGAGA: -0.157
GCTGACCC: 0.0564
ATTTACGC: 0.134
CAGCCGCA: 0.0379
CACCGATA: -0.0636
CGCGCTAA: 0.339
CCGGCTTA: 0.187
AGGCGCTA: 0.12
ATTCTGGA: -0.0758
TCAAGGGA: -0.0622
ATATGTCC: 0.0431

Block 3 — method: EMSA with sequencing; form: double-stranded DNA, one strand shown; sample: in vitro; tested at: 10 and 20 nM; baseline: negative control set to 0; reading: higher = stronger binding; endpoint: normalised bound fraction
Target: Hepatocyte nuclear factor 3-alpha (Foxa1, Mus musculus, UniProt P35582, residues 1-468, full length assumed)
Sequence of UniProt P35582 (whole entry, looked up): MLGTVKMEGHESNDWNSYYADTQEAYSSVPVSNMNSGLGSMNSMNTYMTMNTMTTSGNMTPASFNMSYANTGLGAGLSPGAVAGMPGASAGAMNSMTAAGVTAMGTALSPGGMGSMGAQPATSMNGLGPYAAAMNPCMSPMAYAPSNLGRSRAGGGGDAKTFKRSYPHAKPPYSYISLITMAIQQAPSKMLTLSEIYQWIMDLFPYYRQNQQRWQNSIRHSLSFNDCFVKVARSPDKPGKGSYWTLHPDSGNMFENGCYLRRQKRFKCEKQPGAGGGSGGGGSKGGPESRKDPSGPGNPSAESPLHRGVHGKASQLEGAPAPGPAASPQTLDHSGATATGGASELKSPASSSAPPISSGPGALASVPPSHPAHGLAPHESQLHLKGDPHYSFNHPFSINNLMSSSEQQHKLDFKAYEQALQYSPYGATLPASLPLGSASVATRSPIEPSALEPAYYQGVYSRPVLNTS
Notes: whole designed probe, mean of two concentrations, ends assumed
All sequences stand within: GTGAGCGGTGCCCATTGATGGGGAAC … TTTCACTGGGATCGTGGGGAC
GTGTGTGCGCGCGCGTGTGTGTGTGTTTTCTTAAGCCGGGCTATTCAAACCCTGCTGCAATTCTCCGGTAAACAATGTTACATGGGGCATAATGCAAATAAACGGATTGCAAACGGCAATGATTCATCACTTTGCAGCCGGCCCGGTGGAGCAGCCAGTGCCGGATTTCTCCCTTTTTTTGCAGATCTGCAGA: 0.432 ratio
ATCTTCCCCCTCTTCCTTGCCCCACCAGCTCACCTTCCCGGGTCAAAGTAAACAAGTGTTTACTTTGAAGCCGGCATTCGTTAACCCTCTTCTGGCGCAAACTGCTGTTTGCTCTGGATCTAACATGGTCCTTTGGCGACGCCAGGCTCCGGGAGAGCAAAGCACCGTGTCAGGGCCATGATCCGGGGTGGCC: 0.459 ratio
CCAAAGTATCACAGGGAGAGATGGGCCTCTTGGGGCAGCAGCAGCAGCTGAAGCAGGCTGACTCACAGCTGCTTCTAATATGCTAGGCTTTGTGTAAACAGGCTTTATGACACAAGTGGGCTGACTACAGTGCAATTGGAGTGTGGCATCTGAGTCACTGTGAGGCTCTAGCTGGCTTCTTCCAGCCCTGGCC: 0.31 ratio
ACACCCTTGACCTCTTCATATTGACATCATACGGTACTATATCCTCACAAAATGATTTCCAGTGCTTAATTTAGGTTGTAGCTGCTTTCTTAAGCAAACAGGAAGAAAAACAGCTAGGGTAGTAATTGGAGTGTCTGTCTTTGAGTTTCCAGTTGTTATGGGATATTTATCTCAAAGGCCAGATGCATCTGAC: 0.218 ratio
ACCAAAGTATCACAGGGAGAGATGGGCCTCTTGGGGCAGCAGCAGCAGCTGAAGCAGGCTGACTCACAGCTGCTTCTAATATGCTAGGCTTTGTGTAATCTGGCTTTATGACACAAGTGGGCTGACTACAGTGCAATTGGAGTGTGGCATCTGAGTCACTGTGAGGCTCTAGCTGGCTTCTTCCAGCCCTGGC: -0.0245 ratio
CAGTTTTATTTCACAGCTTAATGTAAATAAAAATTCCGTGTTTTGACTCATGTCAGATAAGAAACAGAGCAATTTTTTTCTGTTGATTTTCTAAGTAAACATATATTTTCTGTCTTAAAAGCTGTCAAGATGAACTTAACATCAAATTGCTTAGATATTGTATTTCCTAACATCAATCCAGACTAAAATTTTT: 0.489 ratio
TAACCTGAGAGTATTTTTTGGTCGTACAGGAAGTGTATCACATCTTTGCTTGCAGGTGATTATTTTTCCTAATTTAATTAGGCCCATAAAATGTAATCTAGCAACTGGGGCTCAGTCATTATTAATTTAGAATATAGACTCAAGAGATGCTGGAACTATAAAGGCAGAAGAATGCATTCTTGACATAGGTAAA: -0.0126 ratio
CTTCCCTAGCCCTGACTTCCCAAGCCTTAGTCATCACCCTCTCTCCCACCCAGGGCTCAGCACAGTACCTGGAACAGTCAAGCCCTCAATAAAAGATTACTGAGTGCATTAAAAAAAAAAAAAAGATTTTAATGAGTCATGCTTTAACTGAAGATTTTAGTGTAGTCAGTCATTGGGCCTTGGATGCCAAAGG: -0.0802 ratio

Block 4 — target: CCNB3, cyclin fold, Cln2 fusion (human); method: yeast growth competition, sequencing; sample: yeast; notes: weak parent motif; baseline: not given; reading: higher = stronger binding; endpoint: normalised enrichment score
Starting sequence: CDC6 docking peptide (human); TLKGRRLVFDNQL
TLKGRRLVFDNQN [L13N]: 0.203
TLKGRRWVFDNQL [L7W]: 0.539
TLKDRRLVFDNQL [G4D]: 0.237
TLKGRRLVPDNQL [F9P]: 0.544
TLKGRNLVFDNQL [R6N]: 0.213
RLKGRRLVFDNQL [T1R]: -0.176
TLKGRRLVFDNQF [L13F]: 0.475
TLKGRHLVFDNQL [R6H]: 0.0105
TLKGRRCVFDNQL [L7C]: -0.135
TLKGLRLVFDNQL [R5L]: 0.362
TLKGCRLVFDNQL [R5C]: 0.108
TLKGRRFVFDNQL [L7F]: 0.165
TLKGRRLVKDNQL [F9K]: 0.666
TLKGRRSVFDNQL [L7S]: 0.504
TLKGRRLVFCNQL [D10C]: 0.614
TLKGRRIVFDNQL [L7I]: 0.182
TLKGRRLVGDNQL [F9G]: -0.08
TVKGRRLVFDNQL [L2V]: 0.509
TLKGRILVFDNQL [R6I]: 0.55
TLKGRRLVFDNSL [Q12S]: -0.179
TLKGRRLVFDNYL [Q12Y]: 0.835
TLKGRSLVFDNQL [R6S]: -0.224
TLKGRRLKFDNQL [V8K]: 0.312
CLKGRRLVFDNQL [T1C]: 0.244
TLKGKRLVFDNQL [R5K]: 0.138

A few entries again (block 2):
GATTACGA: -0.0925
GCTGACCC: 0.0564
CCGCGTAG: 0.195
CCGAAAAC: 0.139
GTAACTTA: -0.0913
AATAGACT: -0.263
CTTGCTGA: -0.188
